# Measured values gathered from unrelated publications.
# Parts stem from different laboratories: compare values within a part only. “And” joins repeats or separate records; there may be more than shown.
# Sequence of UniProt Q99640 (whole entry, looked up): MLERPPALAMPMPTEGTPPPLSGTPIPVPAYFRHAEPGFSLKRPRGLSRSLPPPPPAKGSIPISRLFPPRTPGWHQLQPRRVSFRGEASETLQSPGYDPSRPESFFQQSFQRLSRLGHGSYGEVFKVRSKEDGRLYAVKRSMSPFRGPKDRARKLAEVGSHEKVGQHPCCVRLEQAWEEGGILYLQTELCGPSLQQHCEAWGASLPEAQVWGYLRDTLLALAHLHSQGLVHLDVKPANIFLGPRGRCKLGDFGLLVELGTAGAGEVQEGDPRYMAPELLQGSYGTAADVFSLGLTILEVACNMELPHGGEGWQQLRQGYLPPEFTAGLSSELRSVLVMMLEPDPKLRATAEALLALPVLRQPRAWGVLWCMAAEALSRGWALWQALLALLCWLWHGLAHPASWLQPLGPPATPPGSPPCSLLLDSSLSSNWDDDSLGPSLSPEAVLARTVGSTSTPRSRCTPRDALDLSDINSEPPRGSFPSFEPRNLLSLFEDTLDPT

# Set 1
# Structure (SMILES): Cc1ncsc1-c1ccc(C(CO)NC(=O)C2CC(O)CN2C(=O)C(C(C)C)n2cc(-c3ccc(COc4c(-c5c(C)c(F)cc6[nH]ncc56)c(C5CC5)cc5c(N6CC7CC6CN7)nc(OC6CCOCC6)nc45)cc3)nn2)cc1 (centres unmarked)
# Technique: qRT-PCR
# Host: mouse, PK-59 xenograft
# Medium: tumour
# Notes: unit not given
assay,conditions,scale,mRNA level
measured: FOSL1,"30 mg/kg, 48 h",relative to: vehicle,0.0226 and 0.023 and 0.0248 and 0.025
measured: DUSP4,"30 mg/kg, 48 h",relative to: vehicle,0.089 and 0.109
measured: SPRY4,"intravenous, 10 mg/kg, 48 h","relative to: vehicle, same time point",0.00167 and 0.00124 and 0.000945
measured: DUSP6,"30 mg/kg, 6 h",relative to: vehicle,0.0757 and 0.076 and 0.055 and 0.0551 and 0.042 and 0.0418

# Set 2
# Compound: CCN1/C(=C/C=C2\CCCC(/C=C/C3=[N+](CC)c4ccccc4C3(C)C)=C2NCCCCCCCCN2CCC(Nc3nc4ccccc4n3Cc3ccc(F)cc3)CC2)C(C)(C)c2ccccc21
# Cell line: U-87 MG
# Tested at: concentration not given
# Relative to: DMSO
assay,log2 fold change
measured: EPC1 mRNA,0.825
measured: DYRK3 mRNA,1.61
measured: MTFR2 mRNA,-1.58
measured: C1QL1 mRNA,-1.05
measured: NPR3 mRNA,-1.55
measured: FRMD4A mRNA,-1.86
measured: INSR mRNA,0.987
measured: GRIK2 mRNA,2.9
measured: SCARA3 mRNA,-2
measured: GAS1 mRNA,-3.13
measured: NFIX mRNA,-1.08
measured: GOT1 mRNA,1.42
measured: BCL11B mRNA,1.09
measured: MSC,1.99
measured: NR3C2 mRNA,1.39
measured: RAB5A mRNA,0.851

# Set 3
# Structure (SMILES): C[C@@H]1CN(c2ccc(-c3cc(C(=O)NCCOCCOCCOCCOCCNC(=O)Cn4cc(-c5[nH]cc(C(=O)N[C@@H](CC(N)=O)c6ccc(F)c(Cl)c6)c5-c5ccc(Cl)cc5F)cn4)ccc3F)cc2NC(=O)c2c[nH]c(=O)cc2C(F)(F)F)C[C@H](C)N1C
# Effect on: thermal unfolding
# Technique: differential scanning fluorimetry
# Tested at: 5.5 µM
# Direction: higher = more unfolded
# WDR5: WD repeat-containing protein 5 (WDR5, Homo sapiens, UniProt P61964)
# DCAF1: DDB1- and CUL4-associated factor 1 (DCAF1, Homo sapiens, UniProt Q9Y4B6)
# Sequence of UniProt Q9Y4B6 (whole entry, looked up): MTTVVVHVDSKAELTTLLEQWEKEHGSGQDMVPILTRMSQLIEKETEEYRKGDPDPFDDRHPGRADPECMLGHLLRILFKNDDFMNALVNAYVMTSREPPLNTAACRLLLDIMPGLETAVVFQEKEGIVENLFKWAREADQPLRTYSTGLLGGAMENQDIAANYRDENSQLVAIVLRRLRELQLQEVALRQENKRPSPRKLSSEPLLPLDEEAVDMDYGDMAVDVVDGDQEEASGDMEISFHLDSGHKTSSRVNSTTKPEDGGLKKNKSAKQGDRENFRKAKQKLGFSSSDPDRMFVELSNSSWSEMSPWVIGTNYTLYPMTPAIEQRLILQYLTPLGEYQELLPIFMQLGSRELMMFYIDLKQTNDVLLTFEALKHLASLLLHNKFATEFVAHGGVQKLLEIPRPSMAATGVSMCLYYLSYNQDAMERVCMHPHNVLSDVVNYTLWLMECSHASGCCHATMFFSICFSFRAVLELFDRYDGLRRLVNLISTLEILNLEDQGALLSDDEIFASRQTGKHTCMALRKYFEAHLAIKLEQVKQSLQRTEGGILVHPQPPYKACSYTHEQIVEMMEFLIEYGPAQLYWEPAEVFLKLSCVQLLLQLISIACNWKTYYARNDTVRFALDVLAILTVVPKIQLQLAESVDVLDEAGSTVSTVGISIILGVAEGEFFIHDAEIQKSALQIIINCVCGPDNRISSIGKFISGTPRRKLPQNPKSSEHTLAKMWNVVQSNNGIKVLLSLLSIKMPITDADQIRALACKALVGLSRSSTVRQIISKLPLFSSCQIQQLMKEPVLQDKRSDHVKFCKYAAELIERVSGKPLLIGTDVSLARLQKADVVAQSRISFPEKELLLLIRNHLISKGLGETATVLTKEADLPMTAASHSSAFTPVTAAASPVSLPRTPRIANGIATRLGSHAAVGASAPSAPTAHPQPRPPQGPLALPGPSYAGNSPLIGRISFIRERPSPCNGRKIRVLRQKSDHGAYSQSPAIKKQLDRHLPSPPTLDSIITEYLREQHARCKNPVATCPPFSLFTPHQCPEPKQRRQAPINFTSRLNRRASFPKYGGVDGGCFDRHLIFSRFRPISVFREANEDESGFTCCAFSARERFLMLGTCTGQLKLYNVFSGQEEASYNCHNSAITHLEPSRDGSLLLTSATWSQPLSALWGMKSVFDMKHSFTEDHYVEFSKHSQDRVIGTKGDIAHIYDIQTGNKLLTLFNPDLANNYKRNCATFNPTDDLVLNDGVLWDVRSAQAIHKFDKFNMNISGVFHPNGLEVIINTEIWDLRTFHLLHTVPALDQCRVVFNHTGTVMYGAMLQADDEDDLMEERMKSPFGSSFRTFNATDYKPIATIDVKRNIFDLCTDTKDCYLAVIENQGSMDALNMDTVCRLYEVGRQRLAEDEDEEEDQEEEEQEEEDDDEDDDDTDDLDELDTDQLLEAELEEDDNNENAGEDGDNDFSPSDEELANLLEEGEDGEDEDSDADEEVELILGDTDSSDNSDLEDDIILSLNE
target,conditions,SYPRO Orange fluorescence [a.u.]
WDR5,62.61 °C,9010
DCAF1,35.6 °C,9030
DCAF1,73.41 °C,51000
DCAF1,33.6 °C,8500
WDR5,74.21 °C,9830
DCAF1,31.8 °C,8250
DCAF1,91.41 °C,33800
DCAF1,43.6 °C,11600
WDR5,94.01 °C,39100
DCAF1,48.6 °C,13700
WDR5,68.61 °C,6760

# Mixed results
SMILES,target or system,assay,system,conditions,scale,quantity,value
"Cc1ccc(O)c(C)c1-c1cnc2[nH]c(-c3cnc(N4CCC5(CC4)CC(N4CCN(c6ccc(N[C@H]7CCC(=O)NC7=O)cc6F)CC4)CO5)nc3)cc2c1C#N (single isomer, unassigned)",NCI-H1568,cell growth,,10000 nM,,inhibition,89%
Cc1ccc(O)c(C)c1-c1cnc2[nH]c(-c3cnc(N4CCC(CN5CCN(c6ccc(NC7CCC(=O)NC7=O)cc6F)CC5)CC4)nc3)cc2c1C#N (centres unmarked),,,"cynomolgus monkey, male, plasma","oral, 10 mg/kg, intravenous and oral dosing",,oral bioavailability,5.1%
Cc1ccc(O)c(C)c1-c1cnc2[nH]c(-c3cnc(N4CCC(CN5CCC(c6ccc(NC7CCC(=O)NC7=O)cc6F)CC5)CC4)nc3)cc2c1C#N (centres unmarked),HCC1569,"CDK1 Thr14 phosphorylation, in-cell western",,1.37 nM,lower = stronger inhibition,phospho-CDK1 (Thr14) level,23 a.u. and 9.72 a.u.
Cc1ncc(-c2cc3c(C(N)=O)c(-c4c(C)ccc(O)c4C)cnc3[nH]2)cn1,"Membrane-associated tyrosine- and threonine-specific cdc2-inhibitory kinase (PKMYT1, Homo sapiens, UniProt Q99640)","binding, HTRF",,1111.11 nM,,inhibition,89.7% and 90.3%

# For quick reference, copied from above (mixed results):
SMILES,target or system,assay,system,conditions,scale,quantity,value
Cc1ccc(O)c(C)c1-c1cnc2[nH]c(-c3cnc(N4CCC(CN5CCN(c6ccc(NC7CCC(=O)NC7=O)cc6F)CC5)CC4)nc3)cc2c1C#N (centres unmarked),,,"cynomolgus monkey, male, plasma","oral, 10 mg/kg, intravenous and oral dosing",,oral bioavailability,5.1%
Cc1ccc(O)c(C)c1-c1cnc2[nH]c(-c3cnc(N4CCC(CN5CCC(c6ccc(NC7CCC(=O)NC7=O)cc6F)CC5)CC4)nc3)cc2c1C#N (centres unmarked),HCC1569,"CDK1 Thr14 phosphorylation, in-cell western",,1.37 nM,lower = stronger inhibition,phospho-CDK1 (Thr14) level,23 a.u. and 9.72 a.u.
Cc1ncc(-c2cc3c(C(N)=O)c(-c4c(C)ccc(O)c4C)cnc3[nH]2)cn1,"Membrane-associated tyrosine- and threonine-specific cdc2-inhibitory kinase (PKMYT1, Homo sapiens, UniProt Q99640)","binding, HTRF",,1111.11 nM,,inhibition,89.7% and 90.3%
